Measurements from different studies.
Numbered parts are unrelated; each lists some results of a single study. Positions count from the first letter of the parent shown.

Study 1
Target: CCNB1, cyclin fold, Cln2 fusion (human)
Technique: yeast growth competition, sequencing
Matrix: yeast
Setting: weak parent motif
Relative to: not given
Reading: higher = stronger binding
Endpoint: normalised enrichment score
Starting sequence: SLBP docking peptide (human); ARYKRKLLINDFG
ARAKRKLLINDFG [Y3A]: 2.53
ARYKRKLLINEFG [D11E]: 0.996
ARYKNKLLINDFG [R5N]: 0.198
AQYKRKLLINDFG [R2Q]: 1.43
ARYTRKLLINDFG [K4T]: 0.26

Study 2
Target: Ras GTPase-activating protein-binding protein 1, full length (G3BP1, Homo sapiens, UniProt Q13283)
UniProt Q13283, sequence (whole entry, looked up): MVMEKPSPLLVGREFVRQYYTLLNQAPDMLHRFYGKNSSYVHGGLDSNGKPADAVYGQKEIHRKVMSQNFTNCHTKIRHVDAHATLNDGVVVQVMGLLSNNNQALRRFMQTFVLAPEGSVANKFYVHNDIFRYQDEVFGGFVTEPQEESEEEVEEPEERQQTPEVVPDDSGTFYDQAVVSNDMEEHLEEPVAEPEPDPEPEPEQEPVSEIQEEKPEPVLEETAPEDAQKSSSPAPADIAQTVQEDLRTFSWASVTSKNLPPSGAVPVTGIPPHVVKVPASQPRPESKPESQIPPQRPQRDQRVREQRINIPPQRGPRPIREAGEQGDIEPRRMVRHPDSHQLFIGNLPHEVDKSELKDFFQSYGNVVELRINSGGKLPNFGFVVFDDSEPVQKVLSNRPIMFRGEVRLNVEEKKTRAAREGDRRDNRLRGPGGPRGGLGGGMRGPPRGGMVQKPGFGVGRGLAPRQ
Technique: RNA Bind-n-Seq
Molecule type: RNA
Matrix: in vitro
Concentration: 200 nM
Setting: whole 134-nt RNA, ends assumed
Together with: 150 mM LiCl
Relative to: input library
Reading: higher = stronger binding
Endpoint: log2 enrichment
Library: 7-deaza-guanosine replaces G
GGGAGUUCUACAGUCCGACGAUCCAAGUCCUGUGCUACACAUCGUAUGUACCGAAUCGGAAAAAAAGGUGGUUUUUGGAAAGUAUUAUGUUACGCCGUUCGGAUCUGCACUUCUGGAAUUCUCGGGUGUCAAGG: -1.13
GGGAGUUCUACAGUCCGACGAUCAAGUCCUGUGCUACACAUCGUAUGUACCGAAUCAAACCCAAAUUUUUAAACCCAAAAAAGUAUUAUGUUACGCCGUUCGGAUCUGCACUUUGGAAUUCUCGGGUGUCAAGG: 1.36
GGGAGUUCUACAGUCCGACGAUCCCUGUGCUACACAUCGUAUGUACCGAAUCGGUUUUUUUGGGGUUUUUUUGGUUUUUUUGGAAAGUAUUAUGUUACGCCGUUCGGAUCUGCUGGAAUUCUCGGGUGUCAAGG: 0.915
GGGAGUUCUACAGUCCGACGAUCCUCAAGUCCUGUGCUACACAUCGUAUGUACCGAAUCGGGCCGGCCGGGGCCGGAAAGUAUUAUGUUACGCCGUUCGGAUCUGCACUUCCAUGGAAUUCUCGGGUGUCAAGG: 1.21
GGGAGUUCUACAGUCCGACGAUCCACAGACAACACGCACCCACACAGACACAGAGGGAAGGGGUUGGGAUGGGGACAGGGCGCACAGCAGGGCGGGGUAGGACCCCAGCCCCUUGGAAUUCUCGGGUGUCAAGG: 0.249

Study 3
Target: RNA binding protein fox-1 homolog 2, RRM domain, GST-SBP tag (RBFOX2, Homo sapiens, UniProt O43251-10, residues 100-194)
Technique: RNA Bind-n-Seq
Molecule type: RNA
Matrix: in vitro
Concentration: 365 nM
Setting: natural RNA segment, single round, ends assumed
Relative to: no-protein control
Reading: higher = stronger binding
Endpoint: RBNS enrichment (R)
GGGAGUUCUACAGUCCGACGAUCUUGAACAGUGUGAUGAGAAUAGGAAUGUGGUGUUUUAAAGCAGUGUUGCAUUUUAAUCAGUAAUCUACCUGGUGGAUUUGUUUUUAACCAAAAAGAUGAAUUAUCAAUGAUGGAAUUCUCGGGUGCCAA: 0.97
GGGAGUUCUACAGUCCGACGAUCUCCCCGGGAUGGACCAGGGGCUGCAGGGUGCCUGCAUGGGGGAACGCCGGAGAAUUACCAUCCCCCCGCACCUCGCCUAUGGGGAGAAUGGAACUGGUAGGGGCGUUCCCUGGAAUUCUCGGGUGCCAA: 2.01
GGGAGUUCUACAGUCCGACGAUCAAGAACCCACUGCUCACAGCACUGAUGGCUUGGUUCUCCCAGAUUCUAUCCCCUGGAACUUAUGCAUUACAUGUAUUCAGAUAGUAUCUCAACGAUUAUAGAGAGCCUUUUGGAAUUCUCGGGUGCCAA: 0.481
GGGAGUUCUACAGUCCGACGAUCAGGGCCCCAUCUCAGCAUCGUAGUUACAUAGUUGAUCUUAACUAAGCUUGGGAAUACGUCACCUGAGAUCACAGGUGAUCCAAGCCGCAGAUGUGACAGCUGGGCUCUGAUGGAAUUCUCGGGUGCCAA: 0.412
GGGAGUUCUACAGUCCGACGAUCGGAGCAAUCCAAGCCACAUAUCUUCUACAUCAAAUUUUUCCAUUUUGGUUAUUUUCAUAAUCUGGUAUUGCAUUUUGCCUUCCCUGUUCAUACCUCAAAUUGAUUCAUACUGGAAUUCUCGGGUGCCAA: 5.06
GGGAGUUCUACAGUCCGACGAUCUAAAUGGAUGUAUUGUACAGAGAACACGAACGUCUCUUCCUUAUUUUACGUCUUCAGCACCCUUGAUUAAAAUGGUGUCGUUUACUUAUGUGCACCAAUUGUCAAAACCAUGGAAUUCUCGGGUGCCAA: 0.752

Mixed results
PhoQ, residues 284 288 289 292 302 303 TTCLQL — fold induction (PhoP, residues 12 14 15 18 19 NIMAP (Escherichia coli, UniProt P23836); Sort-seq, refers to: YFP reporter; E. coli; PhoQ-PhoP variant library, together with: 10 µM Mg2+; relative to: high Mg2+ state, higher = stronger signaling): 0.489
